Measurements gathered from unrelated publications.
A part holds a random share of what one study measured. Positions count from the first letter of the parent shown.
Chain of UniProt P51668 (whole entry, looked up): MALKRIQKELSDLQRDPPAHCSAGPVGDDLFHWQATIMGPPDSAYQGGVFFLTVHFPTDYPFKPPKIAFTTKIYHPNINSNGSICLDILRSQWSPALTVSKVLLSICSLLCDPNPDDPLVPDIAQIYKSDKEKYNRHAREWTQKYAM
Chain of UniProt Q9Y2X8 (whole entry, looked up): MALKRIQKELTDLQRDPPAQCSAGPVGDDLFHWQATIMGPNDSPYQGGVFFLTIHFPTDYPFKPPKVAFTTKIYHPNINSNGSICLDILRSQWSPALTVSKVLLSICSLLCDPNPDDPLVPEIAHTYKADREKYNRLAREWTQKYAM
Chain of UniProt O00762 (whole entry, looked up): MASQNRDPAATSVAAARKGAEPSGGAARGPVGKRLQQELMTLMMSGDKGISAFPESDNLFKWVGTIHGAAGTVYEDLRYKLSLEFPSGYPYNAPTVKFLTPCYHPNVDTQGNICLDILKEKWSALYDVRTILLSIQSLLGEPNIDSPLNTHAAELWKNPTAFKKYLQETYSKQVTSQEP
Chain of UniProt Q9NPD8 (whole entry, looked up): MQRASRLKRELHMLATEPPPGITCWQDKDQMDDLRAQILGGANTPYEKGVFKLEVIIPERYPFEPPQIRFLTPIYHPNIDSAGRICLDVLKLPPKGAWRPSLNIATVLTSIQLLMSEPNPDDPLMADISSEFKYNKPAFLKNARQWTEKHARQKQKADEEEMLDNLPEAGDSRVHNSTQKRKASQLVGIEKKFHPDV
Chain of UniProt P62837 (whole entry, looked up): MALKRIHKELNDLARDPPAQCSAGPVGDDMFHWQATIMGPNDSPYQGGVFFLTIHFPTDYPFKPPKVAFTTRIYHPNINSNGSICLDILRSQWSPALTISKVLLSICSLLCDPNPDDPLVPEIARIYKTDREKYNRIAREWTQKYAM
Chain of UniProt P62253 (whole entry, looked up): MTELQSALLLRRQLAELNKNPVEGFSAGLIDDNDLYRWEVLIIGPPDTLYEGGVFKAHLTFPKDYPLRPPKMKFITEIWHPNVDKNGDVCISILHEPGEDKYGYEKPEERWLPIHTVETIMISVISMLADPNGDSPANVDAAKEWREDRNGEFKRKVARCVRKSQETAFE
Chain of UniProt Q9H832 (whole entry, looked up): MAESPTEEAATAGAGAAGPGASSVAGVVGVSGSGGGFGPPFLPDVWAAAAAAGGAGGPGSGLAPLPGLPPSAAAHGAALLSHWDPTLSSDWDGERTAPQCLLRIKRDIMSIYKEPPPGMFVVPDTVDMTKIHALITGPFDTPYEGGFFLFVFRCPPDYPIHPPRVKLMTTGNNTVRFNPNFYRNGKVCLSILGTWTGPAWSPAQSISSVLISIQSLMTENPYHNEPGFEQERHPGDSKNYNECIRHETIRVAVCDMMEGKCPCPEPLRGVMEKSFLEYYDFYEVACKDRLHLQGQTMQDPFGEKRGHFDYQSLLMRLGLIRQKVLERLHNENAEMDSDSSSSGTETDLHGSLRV
Chain of UniProt Q969T4 (whole entry, looked up): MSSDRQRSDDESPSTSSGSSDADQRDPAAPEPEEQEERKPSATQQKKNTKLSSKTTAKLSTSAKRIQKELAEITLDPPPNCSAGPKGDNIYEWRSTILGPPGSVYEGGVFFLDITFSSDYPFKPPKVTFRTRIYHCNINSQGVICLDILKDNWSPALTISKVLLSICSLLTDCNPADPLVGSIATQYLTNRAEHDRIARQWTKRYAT
Chain of UniProt P68036 (whole entry, looked up): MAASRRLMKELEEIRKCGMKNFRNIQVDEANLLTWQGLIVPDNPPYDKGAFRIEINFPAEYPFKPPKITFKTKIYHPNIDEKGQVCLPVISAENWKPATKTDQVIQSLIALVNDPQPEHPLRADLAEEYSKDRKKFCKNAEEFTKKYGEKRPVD

Set 1
Target: RING finger protein unkempt homolog, zinc fingers 1-6, GST-SBP tag (UNK, Homo sapiens, UniProt Q9C0B0, residues 30-357)
Chain of UniProt Q9C0B0 (30-357, looked up): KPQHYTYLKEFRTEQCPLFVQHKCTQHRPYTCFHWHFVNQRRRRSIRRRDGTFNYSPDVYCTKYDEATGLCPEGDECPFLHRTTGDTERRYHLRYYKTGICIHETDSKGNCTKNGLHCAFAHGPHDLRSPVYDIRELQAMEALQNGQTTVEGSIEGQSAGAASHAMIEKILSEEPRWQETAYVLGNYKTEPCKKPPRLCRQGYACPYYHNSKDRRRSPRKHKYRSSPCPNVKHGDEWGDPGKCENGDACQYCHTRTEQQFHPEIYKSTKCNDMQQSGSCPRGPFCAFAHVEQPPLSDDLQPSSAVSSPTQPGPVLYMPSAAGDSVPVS
Technique: RNA Bind-n-Seq
Molecule type: RNA
Matrix: in vitro
Concentration: not given
Setting: RNA with constant flanks, human and mouse sites, ends assumed
Baseline: input RNA pool
Reading: higher = stronger binding
All sequences stand within: GGGAGUUCUACAGUCCGACGAUC … CAACAGAGGAUUGAGCAUCA
`UGGGUUCAGGAUGUGGAUGCAUUGCAGGCAGGAGGACGUGUGCCAGUGUUAGAGACACUCAUUGAACUUGUUGCAAGAGGCCGAUCUAUCCCAGUACAUCUCAAUUCUUUACCAAGAUUG` gave a bound/input enrichment of 0.143 ratio.
For `AGGCCAUUGAUGCAUCUUUCCGACUGUAUGUUCUGUGUAUAAUGCUGUUCUUGGUGCUAAAUAGACUUUCUUUCCUCUGAUAUUCAGGAUAAUUUUUCUCUAUACUUCUGUUCACUUGUU`, the bound/input enrichment was 0.865 ratio.
`CAGUUUGACACUAAGAUAAUGAACUUCUGUGUGCAUUUUUCUAUGCUUUAUUUUUUAAUGUAGCUUACUUCCUGAGAUUUUGGCUUUGUUUAUACAAUCUGAGGGUGGUUAUAAAUACUG` has a bound/input enrichment of 0.323 ratio.
For `AAAGAGAAUGGAGAAGUAAAGAUUUUGCUGAAAAGUGGGAAGGAGAAACCAAAAACAAAUAUAGAAGACUUACAAAUUAAAAAGGUAAAGAAGAAAAAGAAAAAGAAACACAAAGAGAAU`, the bound/input enrichment was 13.8 ratio.
`AUUCCUCUUCCAGCUGCUGAAAGGCCUGGGAUUCUGUCACAGCCGCAACGUGCUACAUAGGGACCUGAAGCCCCAGAACCUGCUCAUAAACAGGAAUGGGGAGUUGAAAUUGGCUGAUUU` gave a bound/input enrichment of 0.117 ratio.
`UCUGGGACGCACAGAGACCGUGAAGAUUCCAAGUUCAGGAGAACUCGACCGUUGGAAUGCCAAGAUGCCUUGGAAACAGCAGCCCGAGCCGAGGGCCUCUCUCUUGAUGCCUCCAUGCAU` has a bound/input enrichment of 0.103 ratio.
`AAGAAGGAGUUUCUGGGCAGGACCGGUGGCAGUUGGUUUAAGAUCCUUCUAUUCUACGUAAUAUUUUAUGGCUGCCUGGCUGGCAUCUUCAUCGGAACCAUCCAAGUGAUGCUGCUCACC` gave a bound/input enrichment of 0.259 ratio.
For `CAAAGCAUUGAGCGUUCUCAUCGGAUUGCCACAGAAACUGAUCAAAUUGGUACAGAAAUCAUAGAAGAGUUGGGGGAGCAACGAGACCAGUUGGAACGUACUAAGAGCAGACUGGUAAAU`, the bound/input enrichment was 0.437 ratio.
`UCUGGCUCAUAUGAUAAGUCAGUGGCUUUGUAUGACUGCCGAAGUCCAGAUGAAAGCCAUCGAAUGUGGCGAUUCAGUGGGCAGAUAGAGAGAGUGACUUGGAAUCACUUUUCACCUUGU` gave a bound/input enrichment of 0.0603 ratio.
With `UAGCUUGAGCUUUCUUUUUGGCCAUCUUUUAAAACUUUUUUUUUUUUUUUUGAUCUAUAAAAUAGACAAGAGAUAGUUCUACAAUGUCCAAGUCAUUCCAGCAGUCAUCUCUCGGUAGGG` the bound/input enrichment was 1.14 ratio.
With `GCAAAGAAGUUUCCCUCGCCCUUCUUUCCAAGCAAAAUGUUUACUGUAAUGUAUGUCUGUGUGUCCUUUCCAAAUCUCUUCAGAUUCCGUCAACUUUCCAGAUUUAAAUGUCUCCUGGUA` the bound/input enrichment was 0.338 ratio.

Set 2
Target: ABI1, truncated, D143A, DHFR fusion (Arabidopsis thaliana)
Technique: DHFR PCA, deep sequencing
Matrix: yeast
Setting: methotrexate growth selection, single substitutions
Added: (+)-ABA 0.0091 µM
Baseline: wild-type fitted maximum
Reading: higher = stronger binding
Starting sequence: PYL1, truncated, DHFR fusion (Arabidopsis thaliana); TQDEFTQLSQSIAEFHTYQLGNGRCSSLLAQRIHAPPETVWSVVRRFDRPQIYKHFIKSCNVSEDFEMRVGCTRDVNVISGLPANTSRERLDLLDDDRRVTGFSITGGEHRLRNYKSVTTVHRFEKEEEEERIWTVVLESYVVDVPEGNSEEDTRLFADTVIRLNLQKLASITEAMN
`R45V` — result for “relative binding score”: -5.13%.
For `E131Y`, “relative binding score” read 14.3%.
`D144S` — result for “relative binding score”: -3.54%.
`E151M` — result for “relative binding score”: 35.4%.
For `E109D`, “relative binding score” read 84.8%.
`Y53H` — result for “relative binding score”: 4.49%.
Under “relative binding score”, `N165A` is recorded as 0.624%.
`V118M` — result for “relative binding score”: 6.22%.
For `F5P`, “relative binding score” read -4.29%.
For `Q10A`, “relative binding score” read 43.7%.
Under “relative binding score”, `T135V` is recorded as -12.7%.
`S104W`: “relative binding score” 0.6%.
For `R155G`, “relative binding score” read -1.53%.
`R113I`: “relative binding score” 9.57%.
`Y141P` — result for “relative binding score”: -1.22%.
For `A158K`, “relative binding score” read 1.14%.
`V161G` — result for “relative binding score”: -0.191%.
`R46T`: “relative binding score” 0.711%.
`R46N` — result for “relative binding score”: 2.58%.
`M176L` — result for “relative binding score”: 14.8%.
`R45D`: “relative binding score” -2.53%.

Set 3
Target: Prothrombin, mature alpha-thrombin (F2, Homo sapiens, UniProt P00734)
Technique: aptamer microarray, sandwich
Molecule type: DNA with 2'F-ANA
Matrix: in vitro
Concentration: 200 nM
Setting: whole 15-mer aptamer, many near background
Added: Cy3 exosite-II aptamer, 400 nM
Reading: higher = stronger binding
Strand: GGTTGGTGTGGTTGG
For `2'F-ANA at 2 3 4 5 6 7 8 9 11 12 15`, “mean fluorescence intensity” read 135 a.u.
`2'F-ANA at 1 2 5 6 7 9 10 12 15`: “mean fluorescence intensity” 51.3 a.u.
`2'F-ANA at 1 3 6 10 12 13 14`: “mean fluorescence intensity” 63.1 a.u.
Under “mean fluorescence intensity”, `2'F-ANA at 3 4 7 8 10 11 12` is recorded as 383 a.u.
Under “mean fluorescence intensity”, `2'F-ANA at 2 4 7 9 10 13` is recorded as 88.3 a.u.
Under “mean fluorescence intensity”, `2'F-ANA at 1 2 5 6 8 10 12 13 15` is recorded as 49.7 a.u.
For `2'F-ANA at 1 4 6 7 8 9 10 11 12 13 15`, “mean fluorescence intensity” read 70.4 a.u.
Under “mean fluorescence intensity”, `2'F-ANA at 3 4 7 10 12 13 15` is recorded as 298 a.u.
`2'F-ANA at 1 2 9 10 12`: “mean fluorescence intensity” 67.9 a.u.
Under “mean fluorescence intensity”, `2'F-ANA at 1 2 5 6 8 13` is recorded as 49.7 a.u.
Under “mean fluorescence intensity”, `2'F-ANA at 2 4 5 9 12` is recorded as 150 a.u.
Under “mean fluorescence intensity”, `2'F-ANA at 1 2 3 4 5 7 8 10 11 12 13 14 15` is recorded as 52.6 a.u.
`2'F-ANA at 1 2 7 15`: “mean fluorescence intensity” 168 a.u.
For `2'F-ANA at 1 2 5 7 8 10`, “mean fluorescence intensity” read 47.6 a.u.
Under “mean fluorescence intensity”, `2'F-ANA at 1 2 5 8 9` is recorded as 85.4 a.u.
Under “mean fluorescence intensity”, `2'F-ANA at 1 7 10 12 13` is recorded as 67.4 a.u.
`2'F-ANA at 2 3 6 7 8 12` — result for “mean fluorescence intensity”: 1140 a.u.
`2'F-ANA at 1 3 4 8 10 12 13 15` — result for “mean fluorescence intensity”: 79 a.u.
`2'F-ANA at 3 4 5 6 9 12`: “mean fluorescence intensity” 203 a.u.
`2'F-ANA at 1 2 3 11 12 13 14` — result for “mean fluorescence intensity”: 119 a.u.
For `2'F-ANA at 3 4 5 13 14`, “mean fluorescence intensity” read 62.9 a.u.
`2'F-ANA at 1 4 5 6 7 9 10 11 12 14 15` — result for “mean fluorescence intensity”: 49.1 a.u.
For `2'F-ANA at 2 4 5 8 11 12 13 14`, “mean fluorescence intensity” read 48.6 a.u.
`2'F-ANA at 1 3 4 5 6 8 10 11 13 14 15` — result for “mean fluorescence intensity”: 50.4 a.u.
Under “mean fluorescence intensity”, `2'F-ANA at 1 5 6 8 10 11 12 13 15` is recorded as 214 a.u.

Set 4
Molecule: B1 (RNF25 RING domain)
Technique: yeast two-hybrid
Matrix: yeast
Setting: mostly zero background
Baseline: not given
Reading: higher = stronger interaction
B1: RNF25 RING domain (UniProt Q96BH1); chain LTDNNIPHGQCVICLYGFQEKEAFTKTPCYHYFHCHCLARYIQHMEQELKAQGQEQEQERQHATTKQKAVGVQCPVCREPLVYDLASL
It gave 5380 for “lacZ reporter activity” (UBE2D1 UBC core domain (UniProt P51668)).
UBE2C UBC core domain (UniProt O00762) — “lacZ reporter activity”: 0.
UBE2G1 UBC core domain (UniProt P62253) — “lacZ reporter activity”: 0.
UBE2D2 UBC core domain (UniProt P62837) — “lacZ reporter activity”: 8310.
For UBE2L3 UBC core domain (UniProt P68036): “lacZ reporter activity” read 0.
The “lacZ reporter activity” was 8070 (UBE2D4 UBC core domain (UniProt Q9Y2X8)).
For UBE2E3 UBC core domain (UniProt Q969T4): “lacZ reporter activity” read 5840.
It gave 0 for “lacZ reporter activity” (UBE2T UBC core domain (UniProt Q9NPD8)).
The “lacZ reporter activity” was 0 (UBE2Z UBC core domain (UniProt Q9H832)).

Set 5
Target: Sal-like protein 4, full length isoform B (SALL4, Homo sapiens, UniProt Q9UJQ4-2, residues 1-616)
Technique: universal PBM
Molecule type: double-stranded DNA, one strand shown
Matrix: in vitro
Concentration: not given
Setting: 8-mer, flanks averaged, mean of replicates
Reading: higher = stronger binding
With `CGCTAGCG` the E-score was -0.19.
With `TAGGAGGA` the E-score was -0.0657.
`ACGCCTCG` gave an E-score of -0.292.
`AAATGCTC` has an E-score of 0.0497.
`AATGAAAT` gave an E-score of 0.243.
`TGCTCTAA` gave an E-score of -0.0433.
With `AAGTAGCA` the E-score was 0.123.
For `CGTCCAGC`, the E-score was -0.137.
`GTATTCAA` gave an E-score of 0.269.
With `CACATGAG` the E-score was 0.0442.
With `CGGGCAAG` the E-score was -0.197.
`TAACATGA` has an E-score of 0.162.
For `ACGTCTAT`, the E-score was 0.0761.
The E-score of `GGTAAGGA` is reported as -0.131.
With `CGGCCGCA` the E-score was -0.241.
`ACTATGTA` has an E-score of 0.199.
`AATGCGCT` has an E-score of -0.0586.
The E-score of `AAGCTAGA` is reported as 0.121.
With `AACTACGG` the E-score was -0.053.
`ACGACAGA` has an E-score of -0.149.
`ACCAACTA` gave an E-score of 0.162.
`CTAGGGTC` has an E-score of -0.258.
The E-score of `GCGGCGGA` is reported as -0.422.
`GTTTGTTA` gave an E-score of 0.213.
`ACTAAAGT` gave an E-score of 0.0559.
